Measured values of several laboratories.
Compare with care: the assays were run in different laboratories. “And” joins repeats or separate records; there may be more than shown.

Structure (SMILES)	organism	assay	test system	conditions	IC50
COc1ccc(C[C@H](NC(=O)[C@H](C)NC(=O)CN2CCOCC2)C(=O)N[C@@H](Cc2ccccc2)C(=O)C2(C)CO2)cc1 (stereo in doubt)	Plasmodium falciparum	parasite growth	K1, chloroquine resistant	72 h, ring stage	< 10 nM and 6.5 nM
Oc1cccc(C2CCCN(CCc3c[nH]c4ccccc34)C2)c1 (stereo not drawn)	Plasmodium yoelii		17XL	384-well	> 20000 nM
CCCCCC[C@H]1C(=O)O[C@H](C)[C@H](NC(=O)c2cccc(NC=O)c2O)C(=O)O[C@@H](C)[C@@H]1OC(=O)CC(C)C	Human alphaherpesvirus 2	viral replication	Vero C1008		12 nM
COc1ccc2c(c1)CCc1c(C(=O)NCCc3nc4cc(C)ccc4[nH]3)n[nH]c1-2	Tetrahymena pyriformis and Klebsiella pneumoniae	virulence in co-culture			570 nM
Cc1cc(O)cc2c(C3CCN(CC4CCN(C(=O)/C=C/c5ccc(Cl)c(Cl)c5)CC4)CC3)c[nH]c12	Plasmodium yoelii		17XL	384-well	> 20000 nM
Cc1nnc(SCC(=O)Nc2ccc(Br)cc2)nc1O	Tetrahymena pyriformis and Klebsiella pneumoniae	virulence in co-culture			2480 nM
Cc1[nH]c2ccccc2c1-c1csc(-c2c[nH]c3ccccc23)n1	Human papillomavirus 16	viral replication, Hirt-qPCR	C-33-A	transient E1/E2-dependent ori replication	1000 nM
O=C(NC1CCC(CN2CCC(c3c[nH]c4ccccc34)CC2)CC1)c1cn(Cc2ccccc2)c2ccccc12 (stereo not drawn)	Plasmodium yoelii		17XL	384-well	> 20000 nM
O=C(Nc1nc2ccc(Cl)cc2s1)c1cc(=O)c2ccccc2o1	Tetrahymena pyriformis and Klebsiella pneumoniae	virulence in co-culture			260 nM

A few entries again:
Structure (SMILES)	organism	assay	test system	conditions	IC50
Cc1[nH]c2ccccc2c1-c1csc(-c2c[nH]c3ccccc23)n1	Human papillomavirus 16	viral replication, Hirt-qPCR	C-33-A	transient E1/E2-dependent ori replication	1000 nM
